Published values pooled from the literature.
Lines come from different studies, so protocols differ. ± marks the error that the study gave.

CCN(CC)CC(=O)Nc1cccc(-n2cc(-c3ccc4ccc(-c5cn(-c6cccc(NC(=O)CN(CC)CC)c6)nn5)cc4c3)nn2)c1 has a fold regulation of 1.04 fold (RCC4; PCR angiogenesis array, item: TGFB2; 5 x IC50, 2 h, normoxia; relative to: untreated).
With Nc1ncc(-c2cc(-c3cnn(CC(F)(F)F)c3)ncc2F)nc1C(=O)NC1CNCC(F)C1 (stereo not drawn) the remaining binding was 87% (FLT4; KINOMEscan; 1 µM; relative to: DMSO control).
For COC1CN([C@H]2CC[C@H]([C@@]3(C)Oc4c(Cl)cc(C(=O)NCc5c(SC)cc(C)[nH]c5=O)c(C)c4O3)CC2)C1, “log2 fold change” read 0.893 (RNA-seq, item: PLEKHA7 mouse homolog; mouse, HT-1376 xenograft, whole blood; dose not given; relative to: vehicle).
Cc1ncsc1-c1ccc(C(C)NC(=O)C2CC(O)CN2C(=O)C(NC(=O)CCCCCCCCCCN2CCCC(Nc3ncc(Cl)c(Nc4ccccc4S(=O)(=O)C(C)C)n3)C2)C(C)(C)C)cc1 (stereo not drawn) — result for “log2 fold change”: -2.82 (22Rv1; RNA-seq, item: SOWAHB mRNA; concentration not given; relative to: DMSO).
The binding of C=CC(=O)Nc1cccc(Cn2ncc3cnc(Nc4cnn(CCOC)c4)nc32)c1 is reported as 77% (human ABL1(F317I)-nonphosphorylated; KINOMEscan; 100 nM; relative to: control).
COc1ccc(C(=O)CCc2cc(C(CCc3ccc(O)cc3OC)c3ccc(O)cc3)c(O)cc2OC)cc1 (racemic) has a 4-HDHA level of 38 ± 10 pg/mL (human blood; 3 µM, together with: A23187).
For CN1CCCNC(=O)c2cccc(c2)C(=O)NCCCN(C)CCCNc2cccc3c2C(=O)c2cccc(c2C3=O)NCCC1, “log2 fold change” read 2.38 (SAS; RNA-seq, item: LMLN-AS1 mRNA; 1 µM, 6 h; relative to: untreated cells).
With COc1cc(O)ccc1CCC(c1ccc(O)cc1)c1cc2c(c(C)c1O)OC(c1ccc(O)cc1)CC2 (mixture of isomers) the amount was 44 ± 16 pg/mL blood (item: 7-HDHA; human whole blood; 3 µM, together with: Escherichia coli).
With CNS(=O)(=O)Nc1nccc(Cc2c(C)c3ccc(Oc4ncccc4F)cc3oc2=O)c1F the IC50 was 647 nM (CCK-81; cell viability, CellTiter-Glo; 7 days).

Some of these lines once more:
COc1ccc(C(=O)CCc2cc(C(CCc3ccc(O)cc3OC)c3ccc(O)cc3)c(O)cc2OC)cc1 (racemic) has a 4-HDHA level of 38 ± 10 pg/mL (human blood; 3 µM, together with: A23187).
